Assay results gathered from unrelated publications.
Each line is one published result; not all experiments were run side by side. “And” joins repeats or separate records; there may be more than shown. ± marks the error that the study gave. Ends that are not written are not given here. * marks the point of attachment.
UniProt O43614, sequence (whole entry, unmodified, looked up): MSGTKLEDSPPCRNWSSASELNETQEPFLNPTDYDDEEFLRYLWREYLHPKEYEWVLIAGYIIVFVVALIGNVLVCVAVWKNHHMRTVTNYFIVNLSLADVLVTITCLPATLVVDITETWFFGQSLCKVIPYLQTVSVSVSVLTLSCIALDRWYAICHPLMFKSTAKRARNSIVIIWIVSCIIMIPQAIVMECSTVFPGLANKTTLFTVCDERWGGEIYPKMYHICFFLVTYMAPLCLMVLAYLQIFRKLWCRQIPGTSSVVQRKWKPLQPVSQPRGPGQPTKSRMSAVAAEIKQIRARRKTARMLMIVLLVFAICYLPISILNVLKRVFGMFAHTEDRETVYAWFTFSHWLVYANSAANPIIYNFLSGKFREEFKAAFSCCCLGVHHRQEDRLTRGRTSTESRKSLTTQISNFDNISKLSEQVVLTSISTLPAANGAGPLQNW

| Molecule | tested on | test | test system | setting | how to read | quantity | result |
| --- | --- | --- | --- | --- | --- | --- | --- |
| oseltamivir carboxylate | Influenza B virus | cytopathic effect, MTS | MDCK |  |  | EC50 | 2.6 µM |
| ETTLKSF | Plasmodium falciparum | merozoite invasion | peptide, 3D7 | 200 µg/mL, 20 h, biotinylated peptide |  | inhibition | ~45% and 45% |
| Ro 31-8220 | influenza A virus H1N1 |  |  | concentration not given |  | viral titre | no effect |
| Biotin-SGSGSWFEPGL (N-biotinylated; Biotin = O=C1N[C@H]2[C@H](CS[C@H]2CCCCC(=O)*)N1) | Plasmodium falciparum |  | 3D7 | 400 µg/mL, 20 h |  | merozoite invasion inhibition | no inhibition |
| nonaarginine | PorA peptide pore | peptide binding, planar bilayer single-channel recording |  | 0.5 µM, pH 7.4, -20 mV, cis side, 150 mM KCl |  | koff | 196 ± 20 s⁻¹ |
| Polymyxin B |  |  | mouse, serum | 20 mg/kg |  | Kim-1 level | 79.4 ng/mL |
| bovine serum albumin | Mycobacterium tuberculosis |  | H37Rv |  |  | MIC | > 200 mg/L |
| aspterric acid |  | hypocotyl length | Arabidopsis thaliana Col-0 seeds | 25.0 µg/mL, 7 days, dark |  | inhibition | 98% |
| tunicamycin | Mycobacterium tuberculosis | growth, Microplate Alamar Blue | Erdman |  |  | IC50 | 1.6 µM |
| insulin human |  | item: GLB1 mRNA | EcoHIV-infected mouse, brain | i.p., dose not given | baseline: PBS | fold change | 1.24 |
| dynorphin | HCRTR2 (Homo sapiens, UniProt O43614, del254-292/I293E/K294R/L160H/M161K/Q254E) | sensor fluorescence, fluorescence imaging | HEK293T | concentration not given, unit not given | baseline: baseline | ΔF/F0 | -0.838 and -0.639 and 0.397 and -0.603 and 0.573 and 1.71 and -0.106 and 0.691 |
| oseltamivir carboxylate | Influenza B virus | viral replication, MTS |  |  |  | EC50 | 77.6 µM |
| oseltamivir carboxylate | Influenza A virus | viral replication, MTS | MDCK, H1N1 |  |  | EC50 | 5.4 µM |
| capreomycin | Mycobacterium tuberculosis | resazurin microtiter | H37Ra | 2 weeks, 37 °C |  | MIC | 2 mg/L |
| maraviroc | human coronavirus OC43 | virus-induced cell death | MRC-5 |  |  | maximum inhibition | 5.95% |

Excerpt of the above:
| Molecule | tested on | test | test system | setting | how to read | quantity | result |
| --- | --- | --- | --- | --- | --- | --- | --- |
| Polymyxin B |  |  | mouse, serum | 20 mg/kg |  | Kim-1 level | 79.4 ng/mL |
| bovine serum albumin | Mycobacterium tuberculosis |  | H37Rv |  |  | MIC | > 200 mg/L |
